Published values collected from several papers.
Numbered parts are unrelated; each lists some results of a single study. ± marks the error that the study gave.
UniProt Q96Q40, sequence (whole entry, looked up): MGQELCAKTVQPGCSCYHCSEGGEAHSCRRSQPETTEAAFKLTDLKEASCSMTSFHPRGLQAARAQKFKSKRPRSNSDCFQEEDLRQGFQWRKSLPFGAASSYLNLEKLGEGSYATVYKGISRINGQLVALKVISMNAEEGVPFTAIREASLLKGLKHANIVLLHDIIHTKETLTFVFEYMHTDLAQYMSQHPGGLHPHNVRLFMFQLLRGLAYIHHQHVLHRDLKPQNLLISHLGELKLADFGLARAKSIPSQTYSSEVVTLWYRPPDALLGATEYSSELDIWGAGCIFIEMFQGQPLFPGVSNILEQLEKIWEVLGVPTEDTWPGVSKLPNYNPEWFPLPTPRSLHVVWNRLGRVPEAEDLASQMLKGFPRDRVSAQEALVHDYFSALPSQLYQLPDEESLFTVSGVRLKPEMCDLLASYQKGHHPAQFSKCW
UniProt Q16513, sequence (whole entry, looked up): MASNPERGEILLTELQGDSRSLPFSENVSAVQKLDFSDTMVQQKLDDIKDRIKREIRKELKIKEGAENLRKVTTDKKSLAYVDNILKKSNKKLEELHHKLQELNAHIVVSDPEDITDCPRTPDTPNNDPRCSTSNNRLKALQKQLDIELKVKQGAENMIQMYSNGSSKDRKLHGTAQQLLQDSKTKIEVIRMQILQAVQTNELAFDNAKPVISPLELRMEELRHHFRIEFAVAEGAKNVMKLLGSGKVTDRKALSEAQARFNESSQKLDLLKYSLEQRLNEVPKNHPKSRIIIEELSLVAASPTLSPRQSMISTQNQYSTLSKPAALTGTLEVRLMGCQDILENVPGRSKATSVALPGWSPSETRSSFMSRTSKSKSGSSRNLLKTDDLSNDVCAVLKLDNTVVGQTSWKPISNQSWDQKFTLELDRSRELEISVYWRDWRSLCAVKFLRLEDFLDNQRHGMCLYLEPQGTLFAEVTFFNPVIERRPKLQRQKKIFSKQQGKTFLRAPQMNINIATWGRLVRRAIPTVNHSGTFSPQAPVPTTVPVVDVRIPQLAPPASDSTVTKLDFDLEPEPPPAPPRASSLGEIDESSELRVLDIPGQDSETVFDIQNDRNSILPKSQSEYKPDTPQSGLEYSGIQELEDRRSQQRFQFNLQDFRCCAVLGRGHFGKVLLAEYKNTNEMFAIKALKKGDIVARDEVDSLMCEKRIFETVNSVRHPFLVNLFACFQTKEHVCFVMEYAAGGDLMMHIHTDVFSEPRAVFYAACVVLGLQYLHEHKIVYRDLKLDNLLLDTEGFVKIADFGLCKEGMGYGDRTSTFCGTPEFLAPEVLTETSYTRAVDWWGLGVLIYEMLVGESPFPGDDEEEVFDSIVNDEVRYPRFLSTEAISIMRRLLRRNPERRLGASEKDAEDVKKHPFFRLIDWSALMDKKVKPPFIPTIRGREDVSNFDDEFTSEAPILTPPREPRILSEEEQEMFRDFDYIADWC
UniProt Q92772, sequence (whole entry, looked up): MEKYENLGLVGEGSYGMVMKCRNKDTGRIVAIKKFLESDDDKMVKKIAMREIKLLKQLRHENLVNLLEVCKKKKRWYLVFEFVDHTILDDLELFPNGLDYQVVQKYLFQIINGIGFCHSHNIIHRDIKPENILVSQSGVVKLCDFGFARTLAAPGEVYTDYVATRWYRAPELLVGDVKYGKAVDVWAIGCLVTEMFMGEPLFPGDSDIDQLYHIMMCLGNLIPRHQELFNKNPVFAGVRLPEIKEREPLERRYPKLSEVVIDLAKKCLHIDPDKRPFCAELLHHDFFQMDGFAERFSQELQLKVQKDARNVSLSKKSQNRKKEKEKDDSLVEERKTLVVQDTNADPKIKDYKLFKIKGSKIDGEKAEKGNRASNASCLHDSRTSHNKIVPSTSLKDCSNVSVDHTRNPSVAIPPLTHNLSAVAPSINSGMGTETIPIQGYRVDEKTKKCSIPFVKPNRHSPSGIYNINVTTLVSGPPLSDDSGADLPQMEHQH
UniProt Q8TDX7, sequence (whole entry, looked up): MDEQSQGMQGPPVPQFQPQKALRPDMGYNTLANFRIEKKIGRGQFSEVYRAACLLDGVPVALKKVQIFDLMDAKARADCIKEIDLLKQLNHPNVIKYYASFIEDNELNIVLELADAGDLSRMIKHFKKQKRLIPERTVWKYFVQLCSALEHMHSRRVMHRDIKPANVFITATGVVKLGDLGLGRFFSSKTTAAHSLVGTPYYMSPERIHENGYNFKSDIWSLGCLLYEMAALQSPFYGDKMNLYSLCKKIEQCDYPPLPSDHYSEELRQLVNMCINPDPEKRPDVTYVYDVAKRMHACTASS
UniProt Q13554, sequence (whole entry, looked up): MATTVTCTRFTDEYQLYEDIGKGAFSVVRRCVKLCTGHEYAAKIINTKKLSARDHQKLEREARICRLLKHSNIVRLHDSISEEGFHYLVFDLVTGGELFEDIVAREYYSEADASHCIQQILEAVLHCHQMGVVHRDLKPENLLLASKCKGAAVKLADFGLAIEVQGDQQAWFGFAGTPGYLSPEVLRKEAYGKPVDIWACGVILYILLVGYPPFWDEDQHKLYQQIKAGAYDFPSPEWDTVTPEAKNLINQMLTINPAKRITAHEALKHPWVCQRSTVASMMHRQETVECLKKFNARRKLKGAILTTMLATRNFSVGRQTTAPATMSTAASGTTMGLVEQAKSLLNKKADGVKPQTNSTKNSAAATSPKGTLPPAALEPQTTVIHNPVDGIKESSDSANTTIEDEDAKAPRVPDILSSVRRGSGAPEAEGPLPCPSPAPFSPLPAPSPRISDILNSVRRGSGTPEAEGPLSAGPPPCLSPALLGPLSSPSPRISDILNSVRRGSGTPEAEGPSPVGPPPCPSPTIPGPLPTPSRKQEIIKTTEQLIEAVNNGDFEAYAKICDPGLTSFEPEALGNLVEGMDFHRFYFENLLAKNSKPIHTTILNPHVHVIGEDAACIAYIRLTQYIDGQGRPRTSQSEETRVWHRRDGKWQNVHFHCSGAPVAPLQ

Sample 1 — cell line: A-375; concentration: 100 µM; time: 18 h; measurement: viability
NCCCC[C@H](N[C@@H](CCc1ccccc1)C(=O)O)C(=O)N1CCC[C@H]1C(=O)O: 83.8%
CCOc1nc2cccc(C(=O)O)c2n1Cc1ccc(-c2ccccc2-c2noc(=O)[nH]2)cc1: 96.1%
Cc1coc2c1C(=O)C(=O)c1c-2ccc2c(C)cccc12: 35.5%
COc1ccc2c(c1)c(CC(=O)O)c(C)n2C(=O)c1ccc(Cl)cc1: 99.1%
CC1(C)S[C@@H]2[C@H](NC(=O)[C@H](C(=O)O)c3ccsc3)C(=O)N2[C@H]1C(=O)O: 88.5%

Sample 2 — method: competition with immobilised ligand; concentration: 1 µM; measurement: remaining binding
Compound: CN(C)C(=O)Cn1cc(-c2nc([C@@](C)(c3ccc(-c4cnc(N)nc4)cc3)C3CC3)no2)cn1
NEK7 (Homo sapiens, UniProt Q8TDX7); cell-free assay: 90%
CDK15 (Homo sapiens, UniProt Q96Q40); cell-free assay: 94%
CAMK2B (Homo sapiens, UniProt Q13554); cell-free assay: 96%
PKN2 (Homo sapiens, UniProt Q16513); cell-free assay: 100%
CDKL2 (Homo sapiens, UniProt Q92772); binding: 100%

Sample 3 — method: immunohistochemistry; measured: symmetric dimethylarginine; species: human cancer patients; medium: tumour biopsy; reference: before treatment; reading: direction not given; measurement: SDMA H-score change
Compound: COc1ccc(-c2c(Nc3ccccn3)[nH]c3c(C4=CCCCC4)c(-c4ccccc4)nn3c2=O)cc1
50 mg QD: -29.8 ± 17.2%
400 mg QD: -11.6 ± 26.6%
100 mg QD: -80.9%

Other studies, line by line
CCC[C@@H]1NC(=O)CSC[C@@H](C(=O)OCC)N(C)C(=O)[C@H](CC(C)C)NC(=O)[C@@H](C)N(C)C(=O)[C@@H](CC(C)C)NC(=O)[C@H](C)N(C)C(=O)[C@@H]2CCCN2C(=O)[C@H](CC(C)C)NC(=O)CN(CCC)C1=O — logD (hydrocarbon/water): 0.554

A few entries again (other studies, line by line):
CCC[C@@H]1NC(=O)CSC[C@@H](C(=O)OCC)N(C)C(=O)[C@H](CC(C)C)NC(=O)[C@@H](C)N(C)C(=O)[C@@H](CC(C)C)NC(=O)[C@H](C)N(C)C(=O)[C@@H]2CCCN2C(=O)[C@H](CC(C)C)NC(=O)CN(CCC)C1=O — logD (hydrocarbon/water): 0.554
